Published values from different studies.
Numbered parts are unrelated; each lists some results of a single study. Positions count from the first letter of the parent shown.

Series 1 — technique: protein-binding microarray; form: double-stranded DNA, one strand shown; matrix: in vitro; tested at: 940 nM top; setting: 60-bp whole probe; with: salmon DNA 0.4 mg/ml; relative to: random background probes; reading: higher = stronger binding; constant ends, left off below: GCCTAGCAC … GTCTTGATTCGCTTGACGCTGCTG
Target: Interferon regulatory factor 5, full length, phosphomimetic (IRF5, Homo sapiens, UniProt Q13568-2, residues 1-514, S451D/S453D/S456D/S462D)
Sequence	fitted relative affinity
TTAGATTCCGGGTTTCGATTAGTGCTA	5.47 z-score
GACGATTTCAGTTTCGACACGTGCTAG	5.77 z-score
TCATATTTATGTATACAACTGTGCTAG	0.272 z-score
GACGGACGGCTTCTCCTGACGTGCTAG	-0.381 z-score
GACGGTCTCCTCCTCCTGACGTGCTAG	-0.0598 z-score
GACGATATCGGGACTGGTGACGTGCTA	-0.404 z-score
TTAGGTTCACTTTTCCTTTAGTGCTAG	0.554 z-score
GGCGATTTCGGGTATCGAGACGTGCTA	1.61 z-score
TTAGGTTTCCTTCTCCGTTAGTGCTAG	2.3 z-score
ATAGGTTTCTATATTTGCTTGTGCTAG	3.9 z-score
AACGGACTGGGGACTGGGGACGTGCTA	-0.16 z-score
GTAGAACTGAGTCTCGATTAGTGCTAG	2.24 z-score
GACAATATCAGTTTCGAGACGTGCTAG	3.89 z-score
GACGGTTTCGGGTATCGGCACGTGCTA	9 z-score
GATGAACTGAGTATCGAGACGTGCTAG	1.56 z-score
GTCGGTATCGGTTTCGGGACGTGCTAG	13.1 z-score
TTAGGTATCGGGACTGGGTTAGTGCTA	3.92 z-score
GACGTTTCCGGTTTCGGGACGTGCTAG	4.15 z-score
GACTGACTGCTTTTCCTGACGTGCTAG	0.112 z-score

Series 2 — target: CCND2, cyclin fold, Cln2 fusion (human); technique: yeast growth competition, sequencing; matrix: yeast; setting: weak parent motif; relative to: not given; reading: higher = stronger binding
Parent: EXO1 docking peptide (human); KPECGRVQRAIFQ
Substitution	normalised enrichment score
R6A	-0.164
I11A	-0.102
G5A	-0.0353
P2A	0.113
F12A	0.29
V7A	0.493

Series 3 — technique: protein binding microarray; form: double-stranded DNA, one strand shown; matrix: in vitro; tested at: not given; relative to: not given; reading: higher = stronger binding
Target: Histone acetyltransferase KAT6A, winged helix 1, GST fusion (KAT6A, Homo sapiens, UniProt Q92794, residues 1-85)
Setting: 8-mer, flanks averaged, mean of 2 arrays, mostly near background
Target sequence (chain): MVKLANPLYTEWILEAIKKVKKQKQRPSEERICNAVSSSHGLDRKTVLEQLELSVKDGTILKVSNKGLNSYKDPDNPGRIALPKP
Sequence	E-score
TATTTGGA	-0.226
ACCGGCCT	0.0746
AGTGTGCA	-0.211
CCTCTAAC	-0.153
CATAAGAG	-0.224
AACCAGGT	-0.236
AACGCTAA	0.0573
AAAATGAT	-0.0952
CCAAGCAG	-0.111
GGCGGCAA	0.355
CACTTTGA	-0.284
AGCTAGCA	-0.104
CTGGGAGC	0.0165
CACGCCGA	0.308
GGCTTTTA	-0.000695
CGCTGGGC	0.169
CCTATACC	0.0582
CTGTTATC	-0.29
ACTGTGGA	-0.163
GTACACAA	-0.092
CTCTGCGA	-0.0427

Series 4 — technique: RNA Bind-n-Seq; form: RNA; matrix: in vitro; tested at: 365 nM; relative to: no-protein control; reading: higher = stronger binding
Target: RNA binding protein fox-1 homolog 2, RRM domain, GST-SBP tag (RBFOX2, Homo sapiens, UniProt O43251-10, residues 100-194)
Setting: natural RNA segment, single round, ends assumed
Residues (chain): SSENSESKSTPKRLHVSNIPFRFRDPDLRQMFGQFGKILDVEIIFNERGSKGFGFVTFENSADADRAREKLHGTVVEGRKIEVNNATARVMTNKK
Sequence	RBNS enrichment (R)
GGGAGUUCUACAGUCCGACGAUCGGUGCCUGGCUUUAACUCCCACCCCUGCUAUGACUCCUCUCUGCAGAGACGCGACUGGCGGCUCCAGCAGGGACUACCUUUCUUAUAAACCCAGGGGGACCACACACACAUGGAAUUCUCGGGUGCCAA	0.461
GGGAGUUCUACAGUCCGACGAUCAGUAUGCAACCAGAACACAGGAGAAGAAAAGCUCCAGGAUCCCUGUCCCCAUCUGUCCUCUUGAUGUGAGAGAGACUCUGAGACUUCUUCCAUCGCAAUGACCUGUAUUAUGGAAUUCUCGGGUGCCAA	1.19
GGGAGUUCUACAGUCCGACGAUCACACUGUGCACAUCUGUGUCUUGUUUGGAAUAUUGUCCAUUGUCCAAUCCUAUGUUUUUGUUCAAAGCCAGCGUCCUCCUCUGUGACCAAUGUCUUGAUGCAUGCACUGUUGGAAUUCUCGGGUGCCAA	18.8
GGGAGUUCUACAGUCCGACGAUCUUCCUGUAAUCACACGAGCACAUUUAUAUAUGCAGUUUCCCAUGGAUAGGCGUGUGACCCUGGUUGAGUGGCACUUGCGGUUUCAUCUUGGUGGCAACUCCUUUGCAAUGUGGAAUUCUCGGGUGCCAA	0.482
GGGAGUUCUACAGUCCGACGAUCACUUAUAGCUAUAUUUUACUACAAAAUUUGUGUAUAAAGAUAUAUUUAAGUGUUUUAGAUAAAUUUAAGUUACUCCAUAUGAAAUGUUUAAUUUCAGCUACUGUGAAUUCUGGAAUUCUCGGGUGCCAA	0.601
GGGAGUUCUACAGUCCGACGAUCACACUUCCCACUGCCAAGAUUUUGUAUUGCCAUCAGGUGCCAAAUAAAUGUUGAUACUUAUUACUGAUUUUGUGCCUGGUGUUUUUGUGGACACUCAAUCUUCGGAAGCUUGGAAUUCUCGGGUGCCAA	0.327
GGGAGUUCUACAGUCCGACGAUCCAGUGGGCAGGGGUGGCAGAGGACACGAGCAGCCACUGCCCGUACCCCCUCUCCUCUCUGUAAGCCCAUGCCCUGUCUUCCCAGGGACUUGUGAGCCUCUUCCCUCGACGUGGAAUUCUCGGGUGCCAA	0.325
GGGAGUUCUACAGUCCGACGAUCUGUGUACAUUUAAGAAAAAAACAAAAAAACGGAAAUGUCAGAAUUGUAUGGAAAUAAAACUUGUUUGAAAAUUUGGAAUAGUGCUGCUGCCAGCUUAUUUUUCUGGUACUUGGAAUUCUCGGGUGCCAA	1.24
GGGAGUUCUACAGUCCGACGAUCAAAAAUAAAUUGAAAAUUAAAGUCAGAUGAGAAUAGGAAUAAUACUUUGCCACUUCUGCAUUAUUUAGAAACAUACGUUAUUGUACAUUUGUAAACCAUUUACUGUCUGGUGGAAUUCUCGGGUGCCAA	0.445
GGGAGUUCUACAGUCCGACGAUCUGGGGUGGGAGUUUUGCUCUCUGUCAGGUGUGAUAAAAUGUUGAACCCUCCCCACCACCACUUUUUUUUUUUUAAACCAGGGAUGUCUGUUGAAAUAAAACAUUCAGUCUUGGAAUUCUCGGGUGCCAA	0.497
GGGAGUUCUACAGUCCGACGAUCUAGCCCUCUUGAUUCUCACCUGAUAGGGCAACAUCAAAGCUUGGUGUGGGUGUGGGUGCCAGCUCCAAGUUGGCUGAGCCUUUUUCCAGGUUCUACCCGGGCGCCUCUGUUGGAAUUCUCGGGUGCCAA	0.239
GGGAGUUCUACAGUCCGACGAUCUACACACACACACAUUUACACACGCAGGACUCUGGAGCCAGAGUAGAGGCUGUGGCCCAGGCACUACCUGCUGGCUCCCACCUAUGGUUUGGGGGCCAUACCUGUUCCAGUGGAAUUCUCGGGUGCCAA	0.764

Series 5 — technique: aptamer microarray, sandwich; form: DNA with 2'F-ANA; matrix: in vitro; tested at: 200 nM; with: Cy3 exosite-II aptamer, 400 nM; reading: higher = stronger binding; sequence: GGTTGGTGTGGTTGG
Target: Prothrombin, mature alpha-thrombin (F2, Homo sapiens, UniProt P00734)
Setting: whole 15-mer aptamer, many near background
Modification	mean fluorescence intensity [a.u.]
2'F-ANA at 1 2 5 8 9 12 14 15	57.6
2'F-ANA at 4 5 6 7 10 11 15	52.2
2'F-ANA at 1 2 3 6 7 9 11 12 13 14	72.3
2'F-ANA at 1 2 6 9 10 12 13 14 15	49.9
2'F-ANA at 2 3 5 7 11 12 15	153
2'F-ANA at 1 2 4 6 8 9 10 11 13 15	47.5
2'F-ANA at 2 3 4 5 6 7 10 11 12	54.3
2'F-ANA at 4 13 14	87.7
2'F-ANA at 1 2 3 4 6 9 10 13 15	58.2
2'F-ANA at 1 2 3 4 7 9 10 11 12	76.6
2'F-ANA at 2 3 5 6 8 9 11 12 13	125
2'F-ANA at 2 6 10 14	86.3
2'F-ANA at 1 4 7 8 12 14 15	74.3
2'F-ANA at 1 2 3 4 9 10 12 13	63
2'F-ANA at 1 3 8 9 11 15	298
2'F-ANA at 8 9 10 11 13	121
2'F-ANA at 1 5 9 10 11 12 13 14	44.3
2'F-ANA at 4 6 8 10 12 14 15	61.4
2'F-ANA at 4 7 8 9 10 11 13 15	73.1
2'F-ANA at 1 2 3 5 7 8 11 12	112
2'F-ANA at 1 2 4 6 8 10 11 12 13 14 15	46.6
2'F-ANA at 1 3 4 5 6 9 10 11 13 14	47.6
2'F-ANA at 1 4 5 9	58.1
2'F-ANA at 1 2 7 10 11 12 13	78.3
2'F-ANA at 1 2 5 6 11 12 14 15	49.3

A few entries again (series 3):
Sequence	E-score
CCTCTAAC	-0.153
CATAAGAG	-0.224
AACCAGGT	-0.236
AACGCTAA	0.0573
AAAATGAT	-0.0952
CCAAGCAG	-0.111
GGCGGCAA	0.355
CACTTTGA	-0.284
AGCTAGCA	-0.104
